Assay results collected from several papers.
Each numbered part is a random draw from the data of one study; scales do not carry over between parts. Changes are numbered by the printed parent chain.

Series 1
Target: Histone acetyltransferase KAT6A, winged helix 1, GST fusion (KAT6A, Homo sapiens, UniProt Q92794, residues 1-85)
Technique: protein binding microarray
Molecule type: double-stranded DNA, one strand shown
Matrix: in vitro
Tested at: not given
Notes: 8-mer, flanks averaged, mean of 2 arrays, mostly near background
Reference: not given
Direction: higher = stronger binding
Residues (chain): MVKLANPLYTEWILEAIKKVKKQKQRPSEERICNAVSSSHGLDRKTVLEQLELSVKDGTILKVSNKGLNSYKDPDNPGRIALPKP
| Sequence | E-score |
| --- | --- |
| AACGGGCC | 0.268 |
| CATATCGA | -0.0508 |
| CAACGTCC | -0.0272 |
| CGCCTATC | 0.145 |
| AAGTTAGC | -0.0254 |
| CAGAAATC | -0.183 |
| AACATACC | -0.0134 |
| ATCTTAAA | -0.175 |
| ATCTGTGA | -0.0626 |
| CTTCGGGA | -0.0508 |
| GGGCTCGA | 0.0672 |
| CCCAGGCG | 0.00955 |
| ATGGTGAG | -0.218 |
| ATATGATG | -0.224 |
| ATGTGACG | -0.0662 |
| GTAGGCAC | 0.0134 |
| TGTTACAA | -0.123 |

Series 2
Target: CEBPD, bZIP domain (human)
Technique: DHFR protein complementation
Matrix: yeast
Notes: single substitutions, most at no-binding floor
Reference: wild-type JUN-FOS pair
Direction: higher = stronger binding
Starting sequence: JUN, bZIP domain (human); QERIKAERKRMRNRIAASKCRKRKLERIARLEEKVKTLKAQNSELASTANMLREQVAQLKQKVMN; partner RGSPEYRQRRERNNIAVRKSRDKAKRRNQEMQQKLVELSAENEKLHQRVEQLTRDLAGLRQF
| Change | binding fitness |
| --- | --- |
| E54N | -1.45 natural log |
| E44W | -1.4 natural log |
| R53H | -1.33 natural log |
| A40L | -1.34 natural log |
| L59P | -1.37 natural log |
| A57S | -1.42 natural log |
| S47R | -1.28 natural log |
| S47M | -1.31 natural log |
| L45E | -1.49 natural log |
| I28S | -1.33 natural log |
| T37V | -1.39 natural log |
| T48H | -1.47 natural log |
| T37Q | -1.24 natural log |
| A40W | -1.31 natural log |
| I28M | -1.32 natural log |
| L52R | -1.48 natural log |
| L31C | -1.45 natural log |

Series 3
Target: CCNE1, cyclin fold, Cln2 fusion (human)
Technique: yeast growth competition, sequencing
Matrix: yeast
Notes: strong parent motif
Reference: not given
Direction: higher = stronger binding
Starting sequence: PKN2 docking peptide (human); VSAVRKLDFSDTM; partner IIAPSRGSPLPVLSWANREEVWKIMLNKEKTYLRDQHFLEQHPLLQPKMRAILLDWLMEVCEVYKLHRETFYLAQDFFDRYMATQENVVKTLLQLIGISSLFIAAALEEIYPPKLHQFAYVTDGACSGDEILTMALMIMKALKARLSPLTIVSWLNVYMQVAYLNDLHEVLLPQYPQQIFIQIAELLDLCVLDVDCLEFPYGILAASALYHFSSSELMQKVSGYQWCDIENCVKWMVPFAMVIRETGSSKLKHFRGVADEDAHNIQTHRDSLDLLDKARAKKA
| Change | normalised enrichment score |
| --- | --- |
| VSAVRMLDFSDTM [K6M] | 4.09 |
| VSAMRKLDFSDTM [V4M] | 3.59 |
| VSAPRKLDFSDTM [V4P] | 0.717 |
| VSAVRKLDFVDTM [S10V] | 4.16 |
| VSAVRKEDFSDTM [L7E] | 0.0609 |
| VSAVRKLDFCDTM [S10C] | 5 |
| VSAVRKLDFDDTM [S10D] | 5.91 |
| VSAVRVLDFSDTM [K6V] | 5.18 |
| VSAVRKIDFSDTM [L7I] | 3.53 |
| VSAVRKLDFSDDM [T12D] | 5.42 |
| VSAVRKLTFSDTM [D8T] | 5.05 |
| VSAVRKLDFWDTM [S10W] | 3.86 |
| VSAVRKLDFSATM [D11A] | 5.12 |
| VSAVRLLDFSDTM [K6L] | 2.76 |
| VSAVRKLDFSDWM [T12W] | 5.72 |
| VSAVRKLDESDTM [F9E] | 0.0738 |
| VSAVAKLDFSDTM [R5A] | 0.333 |
| VSAVRKLSFSDTM [D8S] | 5.49 |
| VSAVRKLDFGDTM [S10G] | 5.73 |
| VSADRKLDFSDTM [V4D] | 0.314 |
| VSDVRKLDFSDTM [A3D] | 0.0429 |
| VSAVRKNDFSDTM [L7N] | 0.0967 |
| VSAVRKLVFSDTM [D8V] | 5.1 |
| VSAVRKLDFSDVM [T12V] | 5.26 |
| VSAVRKLDFSDPM [T12P] | 5.45 |

Series 4
Target: TAR DNA-binding protein 43, full length, His tag (TARDBP, Homo sapiens, UniProt Q13148, residues 1-414)
Technique: RNA Bind-n-Seq
Molecule type: RNA
Matrix: in vitro
Tested at: 20 nM
Notes: 6-mer, flanks averaged, single round
Together with: 150 mM KCl
Reference: input library
Direction: higher = stronger binding
| Sequence | 6-mer enrichment (R) |
| --- | --- |
| CCGUAU | 0.632 |
| CCAGUG | 0.968 |
| GCCAAC | 0.773 |
| UAUUAU | 0.635 |
| CACAAC | 0.653 |
| AAAUGU | 0.721 |
| UAACUA | 0.645 |
| ACCAGU | 0.683 |
| CAGGAA | 0.897 |
| CGAAUA | 0.652 |
| GCUGGG | 3.81 |
| UGCGUG | 1.64 |
| CUCCCG | 0.65 |

Repeated from above (series 1):
| Sequence | E-score |
| --- | --- |
| ATGGTGAG | -0.218 |
| AACATACC | -0.0134 |
| TGTTACAA | -0.123 |
| ATATGATG | -0.224 |
